Published values pooled from the literature.
A part holds a random share of what one study measured.

Block 1
Target: Histone acetyltransferase KAT6A, both winged helices, GST fusion (KAT6A, Homo sapiens, UniProt Q92794, residues 1-181)
Technique: protein binding microarray
Molecule type: double-stranded DNA, one strand shown
Matrix: in vitro
Tested at: not given
Setting: 8-mer, flanks averaged, mean of 2 arrays, mostly near background
Reference: not given
Reading: higher = stronger binding
Target sequence (chain): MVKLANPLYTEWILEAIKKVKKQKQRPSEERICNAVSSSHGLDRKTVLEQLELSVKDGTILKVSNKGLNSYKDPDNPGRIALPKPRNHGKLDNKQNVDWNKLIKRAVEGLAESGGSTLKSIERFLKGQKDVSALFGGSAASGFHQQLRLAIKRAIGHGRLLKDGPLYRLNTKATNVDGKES
| Oligonucleotide | E-score |
| --- | --- |
| CACGGACG | 0.236 |
| ATAGCGAA | -0.0631 |
| AGGGTTAG | -0.167 |
| GCTCTAAA | -0.0268 |
| AGAGGAGG | -0.241 |
| AAATCCAC | -0.217 |
| GTCCTCAA | -0.0962 |
| CTTGACCA | -0.254 |
| CGATCTAC | -0.044 |
| AGAAACTC | -0.158 |
| CATGTCGC | 0.201 |
| AAGTTCAA | -0.11 |
| CGAATGAC | -0.0206 |
| GAGGACGA | -0.0815 |
| CGGACCCA | 0.115 |
| CAGCGAGG | -0.118 |

Block 2
Target: RNA binding protein fox-1 homolog 2, RRM domain, GST-SBP tag (RBFOX2, Homo sapiens, UniProt O43251-10, residues 100-194)
Technique: RNA Bind-n-Seq
Molecule type: RNA
Matrix: in vitro
Tested at: 365 nM
Setting: natural RNA segment, single round, ends assumed
Reference: no-protein control
Reading: higher = stronger binding
Constant ends, left off below: GGGAGUUCUACAGUCCGACGAUC … UGGAAUUCUCGGGUGCCAA
Residues (chain): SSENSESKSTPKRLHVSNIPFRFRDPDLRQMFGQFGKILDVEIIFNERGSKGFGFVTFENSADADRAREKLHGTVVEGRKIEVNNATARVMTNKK
| Oligonucleotide | RBNS enrichment (R) |
| --- | --- |
| UUGAAGCAUGUGUUACCUGGUUAAGCUUGUUUUCUCUUGCUUUAGGCAAAUAAAAGUUUAAAAAUCACCUUGUUGUGGUUUUCCUGUACCAAAUCACACCUACCUGCCCC | 0.658 |
| GUUUACAAUAUUAAAAUGUAUGUUAGCAAAAUGGGUGGAUUUUCAAAUAAAAUGCAGCUUCCACAAAGUUUUGUUAUGGUAUUCUGGUCUGAGAUGCAUUUUCAUUUUUC | 1.76 |
| CAGUGUGCUGGUUGAAGGCCUGAUGCUGUUAUUCCAGGAGACUGCAGGCCCUUGAUGCCAGGACUCUCUCUACUAAGGCCAGUUCAGGUCUGGGAAAGGGAGCUGGCCUA | 0.446 |
| UGGUGCCAAAACCAGGCCUCUGCUGCCGCCCUUCCUGGAGGCUGCCUAUGUUGGGGGGGACCCUGCCUCAGCUGACCCGGCCUCUCUGCCCCACCCAAGCCCAAACUUGG | 0.163 |
| AUGAGAAACUCAGAGCUCUGGACCGAAAGCAGAAAGUUUGCCGGGAAAAAAAAAGACAACAUUAUUACCAUCGAUUCAGUGCCUGGAUAAAGAGGAAAGCUUACUUGUUU | 0.614 |
| UCCCACUCCUUCGUUUUUCCUCUCAAAUCUCCUUGGUGACCUCAUUGACUGGGAGCAUGGCCAGGCAUCUCCAGGUUCUAAGCUUUGGGAAGCUACACUUCCAAGUUGCU | 0.918 |
| AUACGUUAUUUUGCCUCUAAACUUUUAUUGAAGUUUUAUUUGGCAGGAAAAAAAAUUGAAUCUUGGUCAACAUUUAAACCAAAGUAAAAGGGGAAAAACCAAAGUUAUUU | 0.728 |
| ACAGCAUACUCUGUCCUUCAGAAAGGCGUGAUUCUAGCUGUUGACCCCUUGCAGCUGUUGGAAUCUCUGCAAGAACCUCUGUAUUCUUCUAAUAAAUUCCCUCUUUUAUU | 0.426 |
| AAGAAAGAAAUAACAUGGAAUUCUAUUUGAAGGACAACAGAACAUUCUUGGAAAAGCAGCUCCAGUUGGUUUUUCAACUGUCAAACUUGAAUGUGUAAGUCCCCACAGAG | 0.501 |
| UGCUCUCCAUAUGAGCUCCAGGCCAGCUUGGGUUACAUAAGGAAACCCUGUCUUGAGAAAAACCAAUGAACAAAAAGGAAUUCCUUUCUUAAAAACGUUUAAUGCCAGGC | 0.337 |
| GCACAGGAGAGUCCUGUGUGUAGUGAGGGUUUUCCAUGAUCUAUUCUUGCAGUUUUUUUGGUAAUACCGUGGUCUAUUUAUACAAAUAUUAAAAGUGCUGUUUAUAGAGC | 0.581 |
| UAUUGUAUUUAUUUUAGAAACUGAGAUAUACAUAGCAUGAUUACUUUUACAGAAGAAACUAAAAGACAAAGGAAUAUUAAGCACCUGAGGGGUUUUUGUUUGAUUGAUUG | 4.4 |

Block 3
Target: Ras GTPase-activating protein-binding protein 1, full length (G3BP1, Homo sapiens, UniProt Q13283)
Sequence of UniProt Q13283 (whole entry, looked up): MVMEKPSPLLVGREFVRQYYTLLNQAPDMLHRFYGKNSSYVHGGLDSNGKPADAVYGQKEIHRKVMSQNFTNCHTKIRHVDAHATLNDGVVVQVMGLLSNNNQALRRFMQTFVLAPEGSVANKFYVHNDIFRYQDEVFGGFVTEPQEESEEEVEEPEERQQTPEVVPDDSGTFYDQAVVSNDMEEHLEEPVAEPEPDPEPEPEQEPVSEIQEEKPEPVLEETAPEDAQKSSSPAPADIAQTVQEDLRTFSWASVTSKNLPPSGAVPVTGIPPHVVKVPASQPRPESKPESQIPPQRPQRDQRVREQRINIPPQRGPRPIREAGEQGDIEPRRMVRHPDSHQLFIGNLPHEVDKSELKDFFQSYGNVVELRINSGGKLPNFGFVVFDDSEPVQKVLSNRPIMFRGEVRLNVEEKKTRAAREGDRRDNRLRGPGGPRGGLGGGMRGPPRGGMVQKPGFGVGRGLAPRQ
Technique: RNA Bind-n-Seq
Molecule type: RNA
Matrix: in vitro
Tested at: 200 nM
Setting: whole 134-nt RNA, ends assumed
Together with: 150 mM KCl
Reference: input library
Reading: higher = stronger binding
Constant ends, left off below: GGGAGUUCUACAGUCCGACGAUC … UGGAAUUCUCGGGUGUCAAGG
| Oligonucleotide | log2 enrichment |
| --- | --- |
| UCAAGUCCUGUGCUACACAUCGUAUGUACCGAAUCGGCCCGGGCCCGGGCCCGGGAAAGUAUUAUGUUACGCCGUUCGGAUCUGCACUUC | -1.03 |
| GCAGGAAGUAAAAACAAAUGGAAAUGCUUCGGAUAGUGGCAGGGGUGGGGGUUGCUAAUGAAAGGGUGGGAUGGGAGUGGGUAAAGAGUU | 0.747 |
| AGUCCUGUGCUACACAUCGUAUGUACCGAAUCGGGUUUUUUUGGGAAAGGGUUUGGGAAAGUAUUAUGUUACGCCGUUCGGAUCUGCACU | -0.178 |
| UCCUGUGCUACACAUCGUAUGUACCGAAUCGGGGUUUGGGGUUUUUUUGGGGAAAGGGGAAAGUAUUAUGUUACGCCGUUCGGAUCUGCA | 1.05 |
| CUCAGCAGACCCUGAAGGACACUUUGAGACACCAAUCUGGAUUGAGCGGGUGGUGAUAAUAGGGGCUGGAAAGCCAGCAGCUGUGGUACU | 0.604 |
| ACCAUGCAGGUGGGCAUCUUUGGGAAGUGGGGCAAGGGGGGGAUAGGGAGGGGGGUAACCCUUUGGGAACAGGUGGUCCCAGGUCGUUUC | 1.31 |
| GUCCUGUGCUACACAUCGUAUGUACCGAAUCGGAAAAAGGGGAAAAAGGAAAAAGGGGAAAGUAUUAUGUUACGCCGUUCGGAUCUGCAC | -0.521 |
| CACAGACAACACGCACCCACACAGACACAGAGGGAAGGGAUUGGGAUGGGGACAGGGUGCACAGCAGGGCGGGGUAGGACCCCAGCCCCU | 1.91 |
| CAAGUCCUGUGCUACACAUCGUAUGUACCGAAUCGGUUUUGGUUUUGGGGUUUUGGAAAGUAUUAUGUUACGCCGUUCGGAUCUGCACUU | -1.2 |
| UGGGGUCUGCGUACGCCUGGAGUCCUUCCCCGCUGUGCUCAGCAUGGACCCUAUCCGGAGCUUCUGCGGGAAGCUGCGGUCUCUGGCCAG | -0.661 |

Block 4
Target: PABPC1L2, full length, GST fusion (mouse, UniProt A0ABA7IW68)
Technique: RNAcompete
Molecule type: RNA
Matrix: in vitro
Tested at: 20 nM
Setting: 7-mer, probes averaged, single round
Reference: mean of 7-mers
Reading: higher = stronger binding
Residues (chain): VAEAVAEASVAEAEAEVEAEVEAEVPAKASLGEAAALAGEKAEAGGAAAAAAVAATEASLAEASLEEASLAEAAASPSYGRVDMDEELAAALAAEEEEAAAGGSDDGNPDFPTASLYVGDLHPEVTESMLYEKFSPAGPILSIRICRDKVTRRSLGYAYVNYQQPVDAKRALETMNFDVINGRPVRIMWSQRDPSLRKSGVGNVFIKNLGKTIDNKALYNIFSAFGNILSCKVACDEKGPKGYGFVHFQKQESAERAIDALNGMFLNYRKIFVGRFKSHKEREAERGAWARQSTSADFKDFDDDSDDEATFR
| Oligonucleotide | 7-mer Z-score |
| --- | --- |
| UCGGCAA | 0.0623 |
| UAACCAU | -0.18 |
| GGACCCC | -0.224 |
| UGCCGCA | -0.26 |
| GGGAUUC | 0.037 |
| CGGUCUC | -0.304 |
| GUUCAGG | -0.161 |
| CGCUAGA | -0.0446 |
| UUCGACA | -0.132 |
| UCCCAAU | -0.333 |
| UGUAGCC | -0.286 |
| AGGUCCU | -0.289 |
| UUUUUUU | -0.44 |
| CCGGGUG | -0.121 |
| AACAUCC | 0.0261 |
| CGAGGGG | 0.144 |

A few entries again (block 1):
| Oligonucleotide | E-score |
| --- | --- |
| GCTCTAAA | -0.0268 |
| AGAGGAGG | -0.241 |
| AAATCCAC | -0.217 |
| GTCCTCAA | -0.0962 |
